Experimental data gathered from unrelated publications.
Protocols differ between the studies behind these lines.

SMILES = Cc1c(CN(C)C(=O)/C=C/c2cnc3c(c2)CCC(=O)N3)oc2ccccc12; tested on = Escherichia coli; assay = broth microdilution; system = AR-0543; measurement = MIC; result = > 32 µg/mL
SMILES = C[C@H]1COc2c(N3CCN(C)CC3)c(F)cc3c(=O)c(C(=O)O)cn1c23; tested on = Shigella flexneri; assay = agar dilution; system = ATCC 12022 susceptible; measurement = MIC; result = 0.06 µg/mL
SMILES = O=C(O)c1cn(C2CC2)c2cc(N3CCNCC3)c(F)cc2c1=O; tested on = Shigella flexneri; assay = broth dilution; system = CGMCC 1.187; measurement = MIC; result = 0.03 µM
SMILES = C[C@@H](c1ncncc1F)[C@](O)(Cn1cncn1)c1ccc(F)cc1F; tested on = Paecilomyces variotii; system = MYA-3630; measurement = MIC; result = 0.06 µg/mL
SMILES = CCCCCCCCCC(=O)N[C@@H](Cc1c[nH]c2ccccc12)C(=O)N[C@H](CC(N)=O)C(=O)N[C@@H](CC(=O)O)C(=O)N[C@@H]1C(=O)NCC(=O)N[C@@H](CCCN)C(=O)N[C@@H](CC(=O)O)C(=O)N[C@H](C)C(=O)N[C@@H](CC(=O)O)C(=O)NCC(=O)N[C@H](CO)C(=O)N[C@@H]([C@H](C)CC(=O)O)C(=O)N[C@@H](CC(=O)c2ccccc2N)C(=O)O[C@@H]1C; tested on = Staphylococcus aureus; system = SH1000; setting = together with: phosphatidylglycerol, molar ratio 1; measurement = MIC; result = 2 µg/mL
SMILES = CC(=O)C1=NN(c2ccccc2)C(=C(C#N)C(=O)c2ccc(Nc3cnccn3)cc2)S1; tested on = Staphylococcus aureus and Bacillus subtilis; setting = Gram-positive bacteria; measurement = MIC; result = 100 µg/mL
SMILES = N=C(N)c1ccc(OCc2ccccc2COc2ccc(C(=N)N)cc2)cc1; tested on = Escherichia coli; system = BW25113; setting = compound alone, rifampicin checkerboard; measurement = MIC; result = > 200 µg/mL
SMILES = CCOC(=O)CNC(=O)CO/N=c1\cc2n(-c3ccc(Cl)cc3)c3ccccc3nc-2cc1Nc1ccc(Cl)cc1; tested on = Mycobacterium avium; assay = bacterial growth; system = clinical isolate; measurement = MIC; result = > 30 µM
SMILES = Nc1ccccc1NC(=O)CCCCCCC(=O)Nc1ccccc1; tested on = OCI-Ly1; setting = 0.1 µM, 120 h; measurement = viability; result = 108%
SMILES = CCCCCCC#Cc1cncc(-c2nnc(SCc3ccc(Cl)cc3)n2C)c1; tested on = Mycobacterium avium; how to read = no activity below value; measurement = MIC; result = ≥ 200 µM
SMILES = Cc1ccc(CCC(=O)Nc2nnc(S(N)(=O)=O)s2)cc1; tested on = Bifidobacterium longum; system = HM-848; measurement = MIC; result = > 784 µM
SMILES = CC1(C)S[C@@H]2[C@H](NC(=O)[C@H](N)c3ccccc3)C(=O)N2[C@H]1C(=O)O; tested on = Pseudomonas aeruginosa; system = clinical isolate RKI-No_484/15; measurement = MIC; result = > 16 µg/mL
SMILES = CO/N=c1\cc2n(-c3ccc(Cl)cc3)c3ccccc3nc-2cc1Nc1ccc(Cl)cc1; tested on = Mycobacterium avium; assay = bacterial growth; system = clinical isolate; measurement = MIC; result = > 30 µM
SMILES = CC1(C)SC2C(NC(=O)C(NC(=O)C3=C(O)CN(c4ccccc4)C3=O)c3ccccc3)C(=O)N2C1C(=O)O (centres unmarked); tested on = Escherichia coli; assay = broth microdilution; system = BW25113 wild type; setting = 18 h; measurement = MIC; result = 100 µg/mL
SMILES = CCCCc1nc2cc(/C=C/C(=O)NO)ccc2n1CCN(CC)CC; tested on = OCI-Ly1; setting = 0.1 µM, 120 h; measurement = viability; result = 41%
SMILES = N=C(N)c1cccc(OCc2ccc(COc3cccc(C(=N)N)c3)cc2)c1; tested on = Escherichia coli; system = W3110; setting = in combination, checkerboard, together with: rifampicin; measurement = MIC; result = 25 µg/mL
SMILES = CC(=O)NC[C@H]1CN(c2ccc(N3CCOCC3)c(F)c2)C(=O)O1; tested on = Bifidobacterium longum; system = HM-846; measurement = MIC; result = < 2.96 µM

Excerpt of the above:
SMILES = Cc1c(CN(C)C(=O)/C=C/c2cnc3c(c2)CCC(=O)N3)oc2ccccc12; tested on = Escherichia coli; assay = broth microdilution; system = AR-0543; measurement = MIC; result = > 32 µg/mL
